{"data": "Experimental data collected from several papers", "note": "Compare with care: the assays were run in different laboratories. Values joined by “and” are separate records of one study, mostly repeats; a detail may differ. ± marks the error that the study gave."}
{"Compound": "CSCC[C@H](NC(=O)[C@@H](NC(=O)[C@H](CCC(N)=O)NC(=O)[C@H](CO)NC(=O)[C@@H](N)C(C)C)[C@@H](C)O)C(=O)N[C@@H](CCCNC(=N)N)C(=O)N[C@@H](CCC(N)=O)C(=O)N[C@H](C(=O)N[C@@H](C)C(=O)N[C@H](C(=O)N1CCC[C@H]1C(=O)N[C@@H](CC(C)C)C(=O)N[C@@H](CC(C)C)C(=O)N[C@@H](Cc1c[nH]c2ccccc12)C(=O)N[C@@H](Cc1ccccc1)C(=O)N[C@@H](Cc1c[nH]c2ccccc12)C(=O)N[C@H](C(=O)NCC(=O)N[C@@H](CO)C(=O)N[C@@H](CC(C)C)C(=O)NCCOCCOCCOCCOCCOCCOCCOCCOCCOCCOCCOCCOCCC(=O)N[C@@H](CS)C(N)=O)[C@@H](C)O)C(C)C)[C@@H](C)O", "cell line": "MiaPaCa pancreatic cancer", "test": "cell binding, phage binding, measured: output/input phage", "setting": "10 min, 37 °C", "how to read": "reference: control phage", "endpoint": "selectivity ratio", "result": "20 ± 5.3"}
{"Compound": "CC(C)C[C@H](NC(=O)[C@H](CCC(=O)O)NC(=O)[C@@H](N)Cc1ccccc1)C(=O)N[C@@H](CCC(=O)O)C(=O)N[C@@H](CCCNC(=N)N)C(=O)N[C@@H](CCCNC(=N)N)C(=O)N[C@@H](Cc1ccccc1)C(=O)N[C@@H](CCCCN)C(=O)N[C@@H](CCC(N)=O)C(=O)N[C@@H](CCC(N)=O)C(=O)O", "cell line": "HCT-116", "test": "transwell", "setting": "concentration not given", "endpoint": "invasion", "result": "102% and 85.6% and 101%"}
{"Compound": "NC(=O)N/N=C/c1ccc(OCc2ccccc2)cc1", "cell line": "IMR-32", "test": "measured: GPX3", "setting": "50 µg/mL, 24 h", "how to read": "higher = more activity", "endpoint": "glutathione peroxidase activity (OD450)", "result": "0.075 a.u."}
{"Compound": "Cc1cc(Oc2nc(N3CC[C@@H](c4ccncc4)C3)ncc2F)[nH]n1", "cell line": "kidney cancer cell lines", "test": "cell proliferation", "setting": "average over lines", "endpoint": "IC50", "result": "46.8 µM"}
{"Compound": "CC(C)C[C@H](NC(=O)[C@H](CC(=O)O)NC(=O)CNC(=O)[C@@H](N)CCCNC(=N)N)C(=O)N[C@@H](C)C(=O)N[C@H](C(=O)N[C@@H](CC(C)C)C(=O)N[C@@H](CCCNC(=N)N)C(=O)N[C@@H](CCC(N)=O)C(=O)N[C@@H](CC(C)C)C(=O)N[C@@H](C)C(=O)N[C@@H](CCC(N)=O)C(=O)N[C@@H](CCC(=O)O)C(=O)N[C@@H](CC(=O)O)C(=O)NCC(=O)N[C@H](C(=O)N[C@H](C(=O)NCC(=O)N[C@H](C(=O)N[C@@H](CCCNC(=N)N)C(=O)NCCOCCOCCOCCOCCOCCOCCOCCOCCOCCOCCOCCOCCC(=O)N[C@@H](CS)C(N)=O)C(C)C)C(C)C)C(C)C)[C@@H](C)O", "cell line": "MiaPaCa pancreatic cancer", "test": "cell binding, phage binding, measured: output/input phage", "setting": "10 min, 37 °C", "how to read": "reference: control phage", "endpoint": "selectivity ratio", "result": "1.6 ± 1"}
{"Compound": "O=C(C[Se]C(=O)c1ccccc1)Nc1cccc(C(F)(F)F)c1", "cell line": "NCI60 colon subpanel", "test": "NCI60 five-dose screen", "endpoint": "CC50", "result": "39.6 µM"}
{"Compound": "O=C(O)c1ccc(-c2nc(-c3ccccc3Cl)c3sccn23)cc1", "cell line": "K562", "test": "megakaryocyte differentiation, flow cytometry", "setting": "0.1 mM, 24 h", "how to read": "reference: untreated", "endpoint": "CD61 fluorescence intensity", "result": "1.01 fold change and 1.03 fold change"}
{"Compound": "CC(=O)Oc1ccccc1C(=O)[Se]CC(=O)Nc1cccc(C(F)(F)F)c1", "cell line": "NCI60 colon subpanel", "test": "NCI60 five-dose screen", "endpoint": "CC50", "result": "46.3 µM"}
{"Compound": "CC1CCC2C(C)C(OC(=O)CCC(=O)N3CCC(Nc4ccc(S(=O)(=O)NC(=O)c5ccc(N6CCN(CC7=C(c8ccc(Cl)cc8)CC(C)(C)CC7)CC6)cc5Oc5cnc6[nH]ccc6c5)cc4[N+](=O)[O-])CC3)OC3OC4(C)CCC1C32OO4 (stereo not shown)", "cell line": "KCL-22", "test": "annexin V/PI flow cytometry, measured: annexin V+/PI+", "setting": "3.2 µM, 24 h", "endpoint": "late apoptotic cells", "result": "12.9%"}
{"Compound": "O=C(C[Se]C(=O)c1cccs1)Nc1cccc(C(F)(F)F)c1", "cell line": "NCI60 CNS subpanel", "test": "NCI60 five-dose screen", "endpoint": "CC50", "result": "6.1 µM"}
{"Compound": "CSCC[C@H](N)C(=O)N[C@@H](C)C(=O)N[C@@H](Cc1c[nH]c2ccccc12)C(=O)N[C@@H](Cc1c[nH]cn1)C(=O)N[C@@H](CC(=O)O)C(=O)N[C@@H](CC(=O)O)C(=O)N[C@@H](CCC(=O)O)C(=O)N[C@@H](CCC(=O)O)C(=O)N[C@@H](Cc1ccccc1)C(=O)N[C@@H](C)C(=O)N[C@@H](CCCNC(=N)N)C(=O)N[C@@H](CCCNC(=N)N)C(=O)N[C@@H](CCCNC(=N)N)C(=O)N[C@@H](CCCNC(=N)N)C(=O)NCCCCCC(=O)NCCCCC(NC(=O)CCCCCNC(=O)[C@H](CCCNC(=N)N)NC(=O)[C@H](CCCNC(=N)N)NC(=O)[C@H](CCCNC(=N)N)NC(=O)[C@H](CCCNC(=N)N)NC(=O)[C@H](C)NC(=O)[C@H](Cc1ccccc1)NC(=O)[C@H](CCC(=O)O)NC(=O)[C@H](CCC(=O)O)NC(=O)[C@H](CC(=O)O)NC(=O)[C@H](CC(=O)O)NC(=O)[C@H](Cc1c[nH]cn1)NC(=O)[C@H](Cc1c[nH]c2ccccc12)NC(=O)[C@H](C)NC(=O)[C@@H](N)CCSC)C(=O)NCCCCC(NC(=O)C(CCCCNC(=O)CCCCCNC(=O)[C@H](CCCNC(=N)N)NC(=O)[C@H](CCCNC(=N)N)NC(=O)[C@H](CCCNC(=N)N)NC(=O)[C@H](CCCNC(=N)N)NC(=O)[C@H](C)NC(=O)[C@H](Cc1ccccc1)NC(=O)[C@H](CCC(=O)O)NC(=O)[C@H](CCC(=O)O)NC(=O)[C@H](CC(=O)O)NC(=O)[C@H](CC(=O)O)NC(=O)[C@H](Cc1c[nH]cn1)NC(=O)[C@H](Cc1c[nH]c2ccccc12)NC(=O)[C@H](C)NC(=O)[C@@H](N)CCSC)NC(=O)CCCCCNC(=O)[C@H](CCCNC(=N)N)NC(=O)[C@H](CCCNC(=N)N)NC(=O)[C@H](CCCNC(=N)N)NC(=O)[C@H](CCCNC(=N)N)NC(=O)[C@H](C)NC(=O)[C@H](Cc1ccccc1)NC(=O)[C@H](CCC(=O)O)NC(=O)[C@H](CCC(=O)O)NC(=O)[C@H](CC(=O)O)NC(=O)[C@H](CC(=O)O)NC(=O)[C@H](Cc1c[nH]cn1)NC(=O)[C@H](Cc1c[nH]c2ccccc12)NC(=O)[C@H](C)NC(=O)[C@@H](N)CCSC)C(N)=O (stereo partly shown)", "cell line": "mouse C57BL/6 BMMs", "setting": "0.3 µM, 3 days, together with: RANKL", "how to read": "reference: untreated control", "endpoint": "osteoclast formation", "result": "35%"}
{"Compound": "CC(C)(C)C(=O)OCOP(=O)(OCOC(=O)C(C)(C)C)C1CCCN(O)C1=O (stereo not shown)", "cell line": "HCT-15", "endpoint": "TGI", "result": "14.8 µM"}
{"Compound": "O=C(C[Se]C(=O)c1ccccc1Nc1cccc(C(F)(F)F)c1)Nc1cccc(C(F)(F)F)c1", "cell line": "NCI60 breast subpanel", "test": "NCI60 five-dose screen", "endpoint": "CC50", "result": "11.1 µM"}
{"note": "Repeated from above:"}
{"Compound": "CSCC[C@H](N)C(=O)N[C@@H](C)C(=O)N[C@@H](Cc1c[nH]c2ccccc12)C(=O)N[C@@H](Cc1c[nH]cn1)C(=O)N[C@@H](CC(=O)O)C(=O)N[C@@H](CC(=O)O)C(=O)N[C@@H](CCC(=O)O)C(=O)N[C@@H](CCC(=O)O)C(=O)N[C@@H](Cc1ccccc1)C(=O)N[C@@H](C)C(=O)N[C@@H](CCCNC(=N)N)C(=O)N[C@@H](CCCNC(=N)N)C(=O)N[C@@H](CCCNC(=N)N)C(=O)N[C@@H](CCCNC(=N)N)C(=O)NCCCCCC(=O)NCCCCC(NC(=O)CCCCCNC(=O)[C@H](CCCNC(=N)N)NC(=O)[C@H](CCCNC(=N)N)NC(=O)[C@H](CCCNC(=N)N)NC(=O)[C@H](CCCNC(=N)N)NC(=O)[C@H](C)NC(=O)[C@H](Cc1ccccc1)NC(=O)[C@H](CCC(=O)O)NC(=O)[C@H](CCC(=O)O)NC(=O)[C@H](CC(=O)O)NC(=O)[C@H](CC(=O)O)NC(=O)[C@H](Cc1c[nH]cn1)NC(=O)[C@H](Cc1c[nH]c2ccccc12)NC(=O)[C@H](C)NC(=O)[C@@H](N)CCSC)C(=O)NCCCCC(NC(=O)C(CCCCNC(=O)CCCCCNC(=O)[C@H](CCCNC(=N)N)NC(=O)[C@H](CCCNC(=N)N)NC(=O)[C@H](CCCNC(=N)N)NC(=O)[C@H](CCCNC(=N)N)NC(=O)[C@H](C)NC(=O)[C@H](Cc1ccccc1)NC(=O)[C@H](CCC(=O)O)NC(=O)[C@H](CCC(=O)O)NC(=O)[C@H](CC(=O)O)NC(=O)[C@H](CC(=O)O)NC(=O)[C@H](Cc1c[nH]cn1)NC(=O)[C@H](Cc1c[nH]c2ccccc12)NC(=O)[C@H](C)NC(=O)[C@@H](N)CCSC)NC(=O)CCCCCNC(=O)[C@H](CCCNC(=N)N)NC(=O)[C@H](CCCNC(=N)N)NC(=O)[C@H](CCCNC(=N)N)NC(=O)[C@H](CCCNC(=N)N)NC(=O)[C@H](C)NC(=O)[C@H](Cc1ccccc1)NC(=O)[C@H](CCC(=O)O)NC(=O)[C@H](CCC(=O)O)NC(=O)[C@H](CC(=O)O)NC(=O)[C@H](CC(=O)O)NC(=O)[C@H](Cc1c[nH]cn1)NC(=O)[C@H](Cc1c[nH]c2ccccc12)NC(=O)[C@H](C)NC(=O)[C@@H](N)CCSC)C(N)=O (stereo partly shown)", "cell line": "mouse C57BL/6 BMMs", "setting": "0.3 µM, 3 days, together with: RANKL", "how to read": "reference: untreated control", "endpoint": "osteoclast formation", "result": "35%"}
